Experimental data gathered from unrelated publications.
Each line is one published result; not all experiments were run side by side. ± gives the spread as reported.
Cell line: HepG2

Structure (SMILES) = Nc1nc2c(ncn2[C@H]2C[C@H](O)[C@@H](CO)O2)c(=O)[nH]1; test = cell viability, MTT; conditions = 24 h; IC50 = 322 µM
Structure (SMILES) = CCOC(=O)c1c(-c2ccc(OC)cc2)oc2ccc(O)c(CN3CCN(Cc4cn(C[C@H]5O[C@H](O[C@H]6O[C@H](CO)[C@@H](O)[C@H](O)[C@H]6O)[C@H](O)[C@@H](O)[C@@H]5O)nn4)CC3)c12; test = cytotoxicity, resazurin; conditions = 18 h; IC50 = > 200 µM
Structure (SMILES) = [NH2][Pt]([NH2])([Cl])[Cl]; test = cell viability, MTT; conditions = 72 h; IC50 = 7.7 ± 0.4 µM
Structure (SMILES) = CC(=NNC(=O)c1ccncc1)c1ccc(Nc2nnc(-c3ccc(Cl)cc3)c3ccccc23)cc1; test = cell growth, MTT; IC50 = 0.26 µM
Structure (SMILES) = Nc1ncnc2c1ncn2CCN1C(=O)C(=O)c2cc(F)ccc21; test = cell growth, SRB; conditions = 72 h; IC50 = 5.71 ± 3.64 µg/mL
Structure (SMILES) = O=C(O)CCc1ccc(O)c(O)c1; test = cell viability, MTT; conditions = 24 h; IC50 = > 10000 µM
Structure (SMILES) = C#CCN1CCN(Cc2c(O)ccc3oc(-c4ccc(OC)cc4)c(C(=O)OCC)c23)CC1; test = viability; conditions = 18 h; IC50 = > 200 µM
Structure (SMILES) = CNC(=O)c1cc(Oc2ccc(NC(=O)Nc3ccc(Cl)c(C(F)(F)F)c3)cc2)ccn1; test = cell growth, SRB; conditions = 72 h; IC50 = 20.9 ± 8.31 µg/mL
Structure (SMILES) = CN1CCC(NC2CCc3[nH]c4c(C(N)=O)ccc(-c5ccccc5Cl)c4c3C2)CC1 (centres unmarked); test = cell growth; IC50 = 0.02 µM
Structure (SMILES) = O=C1C(=O)N(CCn2ncc3c(=O)[nH]cnc32)c2ccc(F)cc21; test = cell growth, SRB; conditions = 72 h; IC50 = 20.1 ± 9.95 µg/mL
Structure (SMILES) = N[C@@H](CCC[C@H](N)C(=O)O)C(=O)O; test = cell viability, MTT; conditions = 24 h; IC50 = > 10000 µM
Structure (SMILES) = COc1ccc(-c2oc3ccc(O)c(CN4CCCCC4)c3c2C(=O)NCc2cn(C[C@H]3O[C@H](O[C@H]4O[C@H](CO)[C@@H](O)[C@H](O)[C@H]4O)[C@H](O)[C@@H](O)[C@@H]3O)nn2)cc1; test = cytotoxicity, resazurin; conditions = 18 h; IC50 = > 200 µM
Structure (SMILES) = NC(=S)N/N=C1\C(=O)N(CCn2ncc3c(=O)[nH]cnc32)c2ccc(Cl)cc21; test = cell growth, SRB; conditions = 72 h; IC50 = 5.48 ± 3.78 µg/mL
Structure (SMILES) = NCCCCNCCCN; test = cell viability, MTT; conditions = 24 h; IC50 = > 10000 µM
